Published values collected from several papers.
Compare with care: the assays were run in different laboratories.
Sequence of UniProt P00519 (whole entry, looked up): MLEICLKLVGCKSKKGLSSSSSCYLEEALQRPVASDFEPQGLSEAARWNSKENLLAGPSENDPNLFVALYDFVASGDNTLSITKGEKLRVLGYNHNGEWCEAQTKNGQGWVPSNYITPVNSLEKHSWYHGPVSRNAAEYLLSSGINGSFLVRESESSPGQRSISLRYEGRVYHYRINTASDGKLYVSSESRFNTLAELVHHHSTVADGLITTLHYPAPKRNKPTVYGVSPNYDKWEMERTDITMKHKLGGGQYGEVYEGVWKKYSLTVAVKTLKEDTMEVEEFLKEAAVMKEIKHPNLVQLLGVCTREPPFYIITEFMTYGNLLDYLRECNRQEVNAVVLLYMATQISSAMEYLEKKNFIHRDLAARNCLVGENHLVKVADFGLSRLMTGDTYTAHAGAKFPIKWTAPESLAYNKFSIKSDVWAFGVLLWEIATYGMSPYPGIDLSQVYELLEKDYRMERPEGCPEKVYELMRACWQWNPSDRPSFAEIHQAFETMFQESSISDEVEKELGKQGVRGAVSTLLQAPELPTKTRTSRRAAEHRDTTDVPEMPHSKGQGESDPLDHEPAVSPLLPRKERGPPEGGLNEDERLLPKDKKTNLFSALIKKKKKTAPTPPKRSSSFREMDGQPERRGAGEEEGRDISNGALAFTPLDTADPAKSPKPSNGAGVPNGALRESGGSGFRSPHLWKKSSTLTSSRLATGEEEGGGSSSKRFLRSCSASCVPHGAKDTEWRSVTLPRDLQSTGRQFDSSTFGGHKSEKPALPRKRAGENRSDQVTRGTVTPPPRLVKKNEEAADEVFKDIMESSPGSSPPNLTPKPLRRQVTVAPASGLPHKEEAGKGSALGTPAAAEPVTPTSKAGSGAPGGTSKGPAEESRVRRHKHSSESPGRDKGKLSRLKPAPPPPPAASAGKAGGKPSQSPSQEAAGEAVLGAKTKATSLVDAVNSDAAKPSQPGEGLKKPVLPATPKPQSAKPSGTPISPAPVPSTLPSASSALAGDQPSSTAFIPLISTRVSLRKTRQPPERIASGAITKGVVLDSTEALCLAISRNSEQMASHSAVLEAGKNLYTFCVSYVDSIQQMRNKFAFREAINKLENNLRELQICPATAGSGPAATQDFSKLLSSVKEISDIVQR
Sequence of UniProt P54764 (whole entry, looked up): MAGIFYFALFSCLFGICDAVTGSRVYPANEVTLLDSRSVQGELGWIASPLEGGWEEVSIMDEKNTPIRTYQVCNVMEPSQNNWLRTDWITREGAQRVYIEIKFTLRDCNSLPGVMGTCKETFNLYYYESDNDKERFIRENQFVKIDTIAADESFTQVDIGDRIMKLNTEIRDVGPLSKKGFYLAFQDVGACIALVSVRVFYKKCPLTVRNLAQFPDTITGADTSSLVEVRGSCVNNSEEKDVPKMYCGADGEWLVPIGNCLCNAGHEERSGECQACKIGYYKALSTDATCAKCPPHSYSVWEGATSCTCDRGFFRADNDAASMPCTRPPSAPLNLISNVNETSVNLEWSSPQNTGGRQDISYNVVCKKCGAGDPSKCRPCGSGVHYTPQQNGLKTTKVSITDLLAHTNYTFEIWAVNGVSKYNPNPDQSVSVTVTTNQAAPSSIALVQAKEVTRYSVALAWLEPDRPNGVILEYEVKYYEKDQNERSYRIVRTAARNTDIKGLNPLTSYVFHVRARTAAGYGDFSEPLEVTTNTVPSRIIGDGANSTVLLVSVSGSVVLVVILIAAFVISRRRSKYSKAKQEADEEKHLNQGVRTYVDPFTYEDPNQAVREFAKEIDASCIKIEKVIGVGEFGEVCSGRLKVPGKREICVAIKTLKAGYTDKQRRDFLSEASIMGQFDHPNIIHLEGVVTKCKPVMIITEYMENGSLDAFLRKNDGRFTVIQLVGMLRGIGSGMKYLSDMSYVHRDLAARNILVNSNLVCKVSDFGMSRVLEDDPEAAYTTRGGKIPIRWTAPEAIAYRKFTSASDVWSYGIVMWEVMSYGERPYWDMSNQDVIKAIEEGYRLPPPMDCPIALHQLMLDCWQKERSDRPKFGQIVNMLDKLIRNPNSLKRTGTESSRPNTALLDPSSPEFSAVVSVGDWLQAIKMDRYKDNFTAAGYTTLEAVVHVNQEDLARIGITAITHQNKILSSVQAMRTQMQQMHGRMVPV

C[C@@H]1O[C@@H](OC[C@H]2O[C@@H](Oc3c(-c4ccc(O)c(O)c4)oc4cc(O)cc(O)c4c3=O)[C@H](O)[C@@H](O)[C@@H]2O)[C@H](O)[C@H](O)[C@H]1O  MIC (Streptococcus mutans; microbial growth, broth dilution; 24 h): 200 µg/mL
C=C/C=C(\C)CC[C@H]1C[C@H](O)CC(=O)O1  MIC (Salmonella enterica; microbial growth, broth dilution; ATCC14028 TYPHIMURIUM): 128 µg/mL
Cc1[nH]c(C(=O)Nc2ccc(C(=O)NCC(=O)O)cc2N2CC[C@@H](N)C2)c(Cl)c1Cl.Cl  MIC (Acinetobacter baumannii; microbial growth, broth dilution; ATCC19606): > 32 µg/mL
O=C1O[C@H]2[C@@H]3OC(=O)c4cc(O)c(O)c(O)c4-c4c(O)c(O)c5oc(=O)c6c(c(O)c(O)c7oc(=O)c4c5c76)-c4c(cc(O)c(O)c4O)C(=O)OC[C@H]3OC(O)[C@@H]2OC(=O)c2cc(O)c(O)c(O)c2-c2c1cc(O)c(O)c2O (mixture of isomers)  MIC (Streptococcus mutans; microbial growth, broth dilution; 24 h): 100 µg/mL
Cc1[nH]c(C(=O)Nc2ccc(C(=O)NCC(=O)O)cc2N2CC[C@H](NC(=O)OC(C)(C)C)C2)c(Cl)c1Cl  MIC (Acinetobacter baumannii; microbial growth, broth dilution; ATCC19606): > 32 µg/mL
Clc1ccc(Nc2cc3nc4ccccc4n(-c4ccc(Cl)cc4)c-3c/c2=N\OCc2ccccc2)cc1  MIC (Mycobacterium avium; microbial growth; clinical isolate): > 30 µM
CN[C@H](CC(C)C)C(=O)N[C@H]1C(=O)N[C@@H](CC(N)=O)C(=O)N[C@H]2C(=O)N[C@H]3C(=O)N[C@H](C(=O)N[C@H](C(=O)O)c4cc(O)cc(O)c4-c4cc3ccc4O)[C@H](O)c3ccc(c(Cl)c3)Oc3cc2cc(c3O[C@@H]2O[C@H](CO)[C@@H](O)[C@H](O)[C@H]2O[C@H]2C[C@](C)(N)[C@H](O)[C@H](C)O2)Oc2ccc(cc2Cl)[C@H]1O  MIC (Enterococcus faecalis; microbial growth, broth dilution; ATCC29212; 20 h): 4 µg/mL
COC1=CC(=O)c2ccccc2C1=O  MIC (Pichia kudriavzevii; microbial growth, broth dilution; ATCC34135; 24 h): 12.5 µg/mL
CN[C@H](CC(C)C)C(=O)N[C@H]1C(=O)N[C@@H](CC(N)=O)C(=O)N[C@H]2C(=O)N[C@H]3C(=O)N[C@H](C(=O)N[C@H](C(=O)O)c4cc(O)cc(O)c4-c4cc3ccc4O)[C@H](O)c3ccc(c(Cl)c3)Oc3cc2cc(c3O[C@@H]2O[C@H](CO)[C@@H](O)[C@H](O)[C@H]2O[C@H]2C[C@](C)(N)[C@H](O)[C@H](C)O2)Oc2ccc(cc2Cl)[C@H]1O  MIC (Staphylococcus epidermidis; microbial growth, broth dilution; 20 h, clinical isolate): 128 µg/mL
CC1(C)S[C@@H]2[C@H](NC(=O)[C@H](N)c3ccccc3)C(=O)N2[C@H]1C(=O)O  MIC (Escherichia coli; microbial growth, broth dilution; ATCC25922): 21.5 µM
Cc1[nH]c(C(=O)Nc2ccc(C(=O)NCC(=O)O)cc2N2CCN(C(=O)OC(C)(C)C)CC2)c(Cl)c1Cl  MIC (Acinetobacter baumannii; microbial growth, broth dilution; ATCC19606): > 32 µg/mL
CN(Cc1ccc(C2(C(F)(F)F)CC2)cc1)Cc1cccc2ccccc12.Cl  MIC (Trichophyton mentagrophytes; microbial growth, broth dilution; ATCC18748; 72 h): 2000 µg/mL
CNC(C)C1CCC(N)C(OC2C(N)CC(N)C(OC3OCC(C)(O)C(NC)C3O)C2O)O1 (stereo not drawn)  MIC (Escherichia coli; microbial growth; ATCC25922): 0.78 µM
O=C(O)CN1C(=O)/C(=C/c2ccc(-c3ccc(N(c4ccccc4)c4ccccc4)cc3)cc2)SC1=S  MIC (Staphylococcus epidermidis; microbial growth, broth dilution; ATCC12228): 0.98 µg/mL
CN[C@H](CC(C)C)C(=O)N[C@H]1C(=O)N[C@@H](CC(N)=O)C(=O)N[C@H]2C(=O)N[C@H]3C(=O)N[C@H](C(=O)N[C@H](C(=O)O)c4cc(O)cc(O)c4-c4cc3ccc4O)[C@H](O)c3ccc(c(Cl)c3)Oc3cc2cc(c3O[C@@H]2O[C@H](CO)[C@@H](O)[C@H](O)[C@H]2O[C@H]2C[C@](C)(N)[C@H](O)[C@H](C)O2)Oc2ccc(cc2Cl)[C@H]1O  MIC (Staphylococcus epidermidis; microbial growth; ATCC14990): 6.67 µM
O=C(O)CN1C(=O)/C(=C/c2ccc(-c3ccc(N(c4ccccc4)c4ccccc4)cc3)cc2)NC1=S  MIC (Staphylococcus epidermidis; microbial growth, broth dilution; ATCC12228): 1.95 µg/mL
C[C@@H]1[C@H](O)[C@@H](C)/C=C/C=C/C=C/C=C/C=C/C=C/C=C/[C@H](O[C@@H]2O[C@H](C)[C@@H](O)[C@H](N)[C@@H]2O)C[C@@H]2O[C@](O)(C[C@@H](O)C[C@@H](O)[C@H](O)CC[C@@H](O)C[C@@H](O)CC(=O)O[C@H]1C)C[C@H](O)[C@H]2C(=O)O  MIC (Clavispora lusitaniae; microbial growth, broth dilution; MY1396): 0.5 µg/mL
C[C@H](NC(=O)CO/N=c1\cc2n(-c3ccc(Cl)cc3)c3ccccc3nc-2cc1Nc1ccc(Cl)cc1)C(=O)OC(C)(C)C  MIC (Mycobacterium avium; microbial growth; ATCC700898): > 30 µM
C=CC(=O)N1CCC(COCC(=O)N2CCN(c3nc(-c4cnc(N)nc4C(F)F)nc(N4CCOC[C@@H]4C)n3)CC2)CC1  remaining binding (Tyrosine-protein kinase ABL1, non-phosphorylated (ABL1, Homo sapiens, UniProt P00519); binding, competition with immobilised ligand; 1 µM): 100%
CC(C)(C)OC(=O)N1CCN(c2cc(C(=O)NCC(=O)O)ccc2NC(=O)c2cc(Br)c(Br)[nH]2)CC1  MIC (Klebsiella aerogenes; microbial growth, broth dilution; ATCC13408): > 32 µg/mL
C=CCO/N=c1\cc2n(-c3ccc(Cl)cc3)c3ccccc3nc-2cc1Nc1ccc(Cl)cc1  MIC (Mycobacterium avium; microbial growth; clinical isolate): > 30 µM
Cc1[nH]c(C(=O)Nc2ccc(C(=O)NCc3n[nH]c(=O)o3)cc2N2CCN(C(=O)OC(C)(C)C)CC2)c(Cl)c1Cl  MIC (Acinetobacter baumannii; microbial growth, broth dilution; ATCC19606): > 32 µg/mL
CCCCC(=O)Nc1ccc(-c2ccc3ncn(CCC)c(=O)c3c2)cn1  remaining binding (Ephrin type-A receptor 4 (EPHA4, Homo sapiens, UniProt P54764); binding, competition with immobilised ligand; 0.5 µM): 100%
C[C@H](NC(=O)CO/N=c1\cc2n(-c3ccc(Cl)cc3)c3ccccc3nc-2cc1Nc1ccc(Cl)cc1)C(=O)O  MIC (Mycobacterium avium; microbial growth; clinical isolate): > 30 µM

For quick reference, copied from above:
Cc1[nH]c(C(=O)Nc2ccc(C(=O)NCc3n[nH]c(=O)o3)cc2N2CCN(C(=O)OC(C)(C)C)CC2)c(Cl)c1Cl  MIC (Acinetobacter baumannii; microbial growth, broth dilution; ATCC19606): > 32 µg/mL
CC(C)(C)OC(=O)N1CCN(c2cc(C(=O)NCC(=O)O)ccc2NC(=O)c2cc(Br)c(Br)[nH]2)CC1  MIC (Klebsiella aerogenes; microbial growth, broth dilution; ATCC13408): > 32 µg/mL
C=CC(=O)N1CCC(COCC(=O)N2CCN(c3nc(-c4cnc(N)nc4C(F)F)nc(N4CCOC[C@@H]4C)n3)CC2)CC1  remaining binding (Tyrosine-protein kinase ABL1, non-phosphorylated (ABL1, Homo sapiens, UniProt P00519); binding, competition with immobilised ligand; 1 µM): 100%
